# Published values collected from several papers.
# Each line is one published result; not all experiments were run side by side. Values joined by “and” are separate records of one study, mostly repeats; a detail may differ. ± gives the spread as reported.
# uncharacterized protein: uncharacterized protein (Anopheles coluzzii, UniProt A0A6E8VQK1)
# UniProt Q007T0, sequence (whole entry, looked up): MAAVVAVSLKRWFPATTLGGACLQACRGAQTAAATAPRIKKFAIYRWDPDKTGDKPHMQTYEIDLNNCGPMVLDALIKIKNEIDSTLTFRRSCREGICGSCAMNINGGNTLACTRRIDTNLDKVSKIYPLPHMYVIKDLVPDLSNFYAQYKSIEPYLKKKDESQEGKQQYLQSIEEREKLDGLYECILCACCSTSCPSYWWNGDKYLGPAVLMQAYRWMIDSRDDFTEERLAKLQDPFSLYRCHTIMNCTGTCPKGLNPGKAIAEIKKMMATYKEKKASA
# UniProt D0VWV4, sequence (whole entry, looked up): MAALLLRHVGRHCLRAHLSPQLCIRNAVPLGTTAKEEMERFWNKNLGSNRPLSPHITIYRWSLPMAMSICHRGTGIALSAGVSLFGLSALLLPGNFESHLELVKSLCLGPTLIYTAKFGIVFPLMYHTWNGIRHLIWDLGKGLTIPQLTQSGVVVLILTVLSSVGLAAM
# UniProt A5GZW8, sequence (whole entry, looked up): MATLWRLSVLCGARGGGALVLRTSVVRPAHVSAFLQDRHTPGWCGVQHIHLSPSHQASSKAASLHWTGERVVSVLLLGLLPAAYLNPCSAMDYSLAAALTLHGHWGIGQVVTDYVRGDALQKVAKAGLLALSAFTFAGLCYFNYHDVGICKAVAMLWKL
# UniProt P41738, sequence (whole entry, looked up): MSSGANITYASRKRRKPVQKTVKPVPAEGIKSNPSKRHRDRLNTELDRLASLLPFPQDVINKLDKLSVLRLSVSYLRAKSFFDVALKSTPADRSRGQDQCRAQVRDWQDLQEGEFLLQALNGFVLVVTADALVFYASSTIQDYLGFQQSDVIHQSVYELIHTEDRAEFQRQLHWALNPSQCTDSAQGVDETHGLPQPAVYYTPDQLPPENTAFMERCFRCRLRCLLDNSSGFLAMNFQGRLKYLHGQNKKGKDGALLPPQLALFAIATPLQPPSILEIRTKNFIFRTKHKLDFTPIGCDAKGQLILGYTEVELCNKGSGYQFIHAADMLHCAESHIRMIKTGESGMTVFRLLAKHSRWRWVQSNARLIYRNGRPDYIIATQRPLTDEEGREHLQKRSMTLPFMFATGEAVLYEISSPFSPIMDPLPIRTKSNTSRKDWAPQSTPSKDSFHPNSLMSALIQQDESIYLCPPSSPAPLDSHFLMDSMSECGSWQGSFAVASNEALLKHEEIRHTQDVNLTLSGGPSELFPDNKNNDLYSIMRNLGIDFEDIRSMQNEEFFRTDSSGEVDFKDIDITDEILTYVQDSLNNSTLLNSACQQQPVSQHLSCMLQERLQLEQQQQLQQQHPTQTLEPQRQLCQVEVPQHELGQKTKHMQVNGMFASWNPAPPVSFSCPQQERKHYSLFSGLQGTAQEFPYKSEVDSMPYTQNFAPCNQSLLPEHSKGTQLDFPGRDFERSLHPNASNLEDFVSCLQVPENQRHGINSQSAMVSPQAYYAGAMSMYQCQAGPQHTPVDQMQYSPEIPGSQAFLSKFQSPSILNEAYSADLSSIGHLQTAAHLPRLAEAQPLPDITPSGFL
# UniProt P51170, sequence (whole entry, looked up): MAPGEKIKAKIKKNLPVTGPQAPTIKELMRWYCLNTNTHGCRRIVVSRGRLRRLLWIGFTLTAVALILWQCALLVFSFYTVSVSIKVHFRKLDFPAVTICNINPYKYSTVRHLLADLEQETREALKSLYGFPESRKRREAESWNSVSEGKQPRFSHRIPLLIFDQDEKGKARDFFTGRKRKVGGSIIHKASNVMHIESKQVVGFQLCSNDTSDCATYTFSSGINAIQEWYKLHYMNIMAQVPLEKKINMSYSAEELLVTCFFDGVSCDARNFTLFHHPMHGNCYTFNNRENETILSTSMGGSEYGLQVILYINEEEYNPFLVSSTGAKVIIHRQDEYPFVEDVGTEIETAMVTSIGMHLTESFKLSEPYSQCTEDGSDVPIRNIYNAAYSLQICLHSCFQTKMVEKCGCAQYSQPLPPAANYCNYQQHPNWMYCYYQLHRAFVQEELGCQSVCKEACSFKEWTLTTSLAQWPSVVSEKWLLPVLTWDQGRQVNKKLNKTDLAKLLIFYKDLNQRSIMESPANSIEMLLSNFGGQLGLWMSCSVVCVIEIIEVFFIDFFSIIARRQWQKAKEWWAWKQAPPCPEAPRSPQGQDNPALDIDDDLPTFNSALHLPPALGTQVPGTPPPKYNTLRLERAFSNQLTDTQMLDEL
# UniProt Q6ZWH5, sequence (whole entry, looked up): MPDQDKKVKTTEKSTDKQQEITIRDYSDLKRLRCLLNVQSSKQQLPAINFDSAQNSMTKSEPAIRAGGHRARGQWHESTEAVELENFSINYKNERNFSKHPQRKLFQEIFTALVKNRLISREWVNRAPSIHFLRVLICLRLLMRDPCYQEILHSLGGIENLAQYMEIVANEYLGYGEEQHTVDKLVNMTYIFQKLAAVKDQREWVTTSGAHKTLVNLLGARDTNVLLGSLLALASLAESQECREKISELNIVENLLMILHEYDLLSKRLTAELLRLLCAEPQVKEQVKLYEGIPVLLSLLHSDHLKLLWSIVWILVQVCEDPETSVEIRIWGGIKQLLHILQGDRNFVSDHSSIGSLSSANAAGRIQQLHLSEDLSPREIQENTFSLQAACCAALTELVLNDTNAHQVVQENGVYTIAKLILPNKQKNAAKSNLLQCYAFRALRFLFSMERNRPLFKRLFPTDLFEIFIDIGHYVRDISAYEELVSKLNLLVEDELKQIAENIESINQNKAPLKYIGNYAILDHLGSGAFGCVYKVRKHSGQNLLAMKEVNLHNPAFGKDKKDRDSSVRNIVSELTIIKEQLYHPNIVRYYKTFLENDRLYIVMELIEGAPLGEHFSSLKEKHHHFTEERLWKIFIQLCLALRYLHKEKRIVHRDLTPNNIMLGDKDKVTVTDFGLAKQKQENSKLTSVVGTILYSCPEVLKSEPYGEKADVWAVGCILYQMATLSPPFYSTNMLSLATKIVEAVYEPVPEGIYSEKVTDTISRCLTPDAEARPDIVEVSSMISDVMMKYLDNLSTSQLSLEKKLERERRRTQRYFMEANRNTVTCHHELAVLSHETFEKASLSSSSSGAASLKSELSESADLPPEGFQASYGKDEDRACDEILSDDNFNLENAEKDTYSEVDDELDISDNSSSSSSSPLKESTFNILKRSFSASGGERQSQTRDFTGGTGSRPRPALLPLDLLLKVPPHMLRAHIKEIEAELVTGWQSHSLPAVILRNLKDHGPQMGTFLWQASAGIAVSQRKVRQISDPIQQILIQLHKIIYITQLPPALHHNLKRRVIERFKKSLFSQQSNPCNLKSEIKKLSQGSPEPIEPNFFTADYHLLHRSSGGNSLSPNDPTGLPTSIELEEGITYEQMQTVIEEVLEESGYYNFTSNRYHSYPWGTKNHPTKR
# UniProt Q15393, sequence (whole entry, looked up): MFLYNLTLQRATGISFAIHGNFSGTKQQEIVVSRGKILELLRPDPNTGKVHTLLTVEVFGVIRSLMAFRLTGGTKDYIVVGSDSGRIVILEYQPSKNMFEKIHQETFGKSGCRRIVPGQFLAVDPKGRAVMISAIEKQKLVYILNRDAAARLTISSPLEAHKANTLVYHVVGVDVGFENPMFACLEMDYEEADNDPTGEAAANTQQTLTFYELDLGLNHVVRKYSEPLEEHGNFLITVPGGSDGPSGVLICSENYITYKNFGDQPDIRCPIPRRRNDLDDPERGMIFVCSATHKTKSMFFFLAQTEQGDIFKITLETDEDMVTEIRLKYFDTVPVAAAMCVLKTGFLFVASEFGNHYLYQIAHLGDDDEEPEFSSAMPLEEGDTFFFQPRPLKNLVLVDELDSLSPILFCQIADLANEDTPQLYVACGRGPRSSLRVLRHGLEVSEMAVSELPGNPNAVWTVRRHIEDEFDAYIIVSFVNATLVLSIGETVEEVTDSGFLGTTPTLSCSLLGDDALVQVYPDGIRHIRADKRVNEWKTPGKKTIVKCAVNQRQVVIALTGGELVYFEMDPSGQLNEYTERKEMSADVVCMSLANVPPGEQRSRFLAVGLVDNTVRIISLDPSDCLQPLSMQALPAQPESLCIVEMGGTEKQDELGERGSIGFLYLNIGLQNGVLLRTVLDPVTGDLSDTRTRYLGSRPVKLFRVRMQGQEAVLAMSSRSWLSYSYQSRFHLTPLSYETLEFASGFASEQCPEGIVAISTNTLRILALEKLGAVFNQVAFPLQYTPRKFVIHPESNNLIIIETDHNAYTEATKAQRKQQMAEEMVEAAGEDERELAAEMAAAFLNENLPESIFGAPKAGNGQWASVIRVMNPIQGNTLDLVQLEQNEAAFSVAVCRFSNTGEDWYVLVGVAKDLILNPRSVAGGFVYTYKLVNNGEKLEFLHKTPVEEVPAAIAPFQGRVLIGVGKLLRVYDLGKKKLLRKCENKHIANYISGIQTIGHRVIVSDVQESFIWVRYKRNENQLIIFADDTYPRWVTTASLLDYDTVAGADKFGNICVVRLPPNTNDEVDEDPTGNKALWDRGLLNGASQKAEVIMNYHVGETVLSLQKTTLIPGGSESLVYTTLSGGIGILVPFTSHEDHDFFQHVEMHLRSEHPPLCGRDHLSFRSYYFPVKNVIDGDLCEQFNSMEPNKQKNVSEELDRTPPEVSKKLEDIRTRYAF
# UniProt P43115, sequence (whole entry, looked up): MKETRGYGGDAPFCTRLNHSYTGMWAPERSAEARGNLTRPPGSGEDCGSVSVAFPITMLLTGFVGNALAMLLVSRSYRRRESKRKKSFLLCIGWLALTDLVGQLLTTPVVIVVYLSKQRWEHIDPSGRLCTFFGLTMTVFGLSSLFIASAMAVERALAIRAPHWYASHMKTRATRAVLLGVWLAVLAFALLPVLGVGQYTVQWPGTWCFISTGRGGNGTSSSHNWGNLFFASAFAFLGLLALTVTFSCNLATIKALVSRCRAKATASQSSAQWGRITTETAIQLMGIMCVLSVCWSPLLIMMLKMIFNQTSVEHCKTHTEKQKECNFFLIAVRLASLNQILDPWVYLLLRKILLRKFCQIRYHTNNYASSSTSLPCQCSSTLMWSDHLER
# UniProt P15090, sequence (whole entry, looked up): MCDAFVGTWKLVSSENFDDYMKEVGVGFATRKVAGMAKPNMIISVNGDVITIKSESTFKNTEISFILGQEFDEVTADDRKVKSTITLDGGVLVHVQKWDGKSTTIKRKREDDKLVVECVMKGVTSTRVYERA
Structure (SMILES),target,test,system,conditions,scale,quantity,value
c1ccc2c(c1)cc1ccc3cccc4ccc2c1c34,"Aryl hydrocarbon receptor (Ahr, Rattus norvegicus, UniProt P41738)","agonist, CALUX reporter",H4IIE,1.26e-05 µg/mL,,agonist response,16.7%
Clc1cc2c(cc1Cl)Oc1cc(Cl)c(Cl)cc1O2,"Uncharacterized protein (Takifugu rubripes, UniProt Q4JHL6)","reporter gene, agonist, dual-luciferase",COS-7,24 h,,EC20,0.08 ± 0.02 nM
c1cncc([C@@H]2CCCCN2)c1,"Chrnd/Chrna1/Chrne (Mus musculus, UniProt P02716+P04756+P20782)",single-channel kinetics,,wild-type receptor,,resting-state koff,7460 s⁻¹
CCCCCCCCCCCCCC[N+](C)(C)C,"Sodium channel protein type 4 alpha, BTX-activated (Oryctolagus cuniculus, UniProt G1SLL9)",,,concentration not given,,k-1,12.5 s⁻¹
Nc1ncnc2c1ncn2[C@H]1C[C@H](O)[C@@H](COP(=O)(O)OP(=O)(O)OP(=O)(O)O)O1,"Gag-Pol polyprotein, reverse transcriptase (gag-pol, Human immunodeficiency virus type 1 group M subtype B, UniProt P04585)",single nucleotide extension,,matched T:A primer-template,,kcat,0.115 ± 0.00483 s⁻¹
Nc1nc2c(ncn2[C@@H]2O[C@@H]3COP(=O)(O)O[C@H]4[C@@H](O)[C@H](n5cnc6c(=O)[nH]c(N)nc65)O[C@@H]4COP(=O)(O)O[C@H]3[C@H]2O)c(=O)[nH]1,"Cell cycle histidine kinase CckA, G318A; cytoplasmic region (Caulobacter vibrioides, UniProt Q9X688, G318A)","binding, ITC",,added: ADP 5 mM,,association constant,29200 ± 4410 M⁻¹
CC(=O)C1C(=O)c2ccccc2C1=O,"Nuclear receptor subfamily 1 group I member 3 (Homo sapiens, UniProt Q14994)",coactivator recruitment,,,,IC50,inactive
COC(=O)[C@H]1[C@H]2C[C@@H]3c4[nH]c5cc(OC)ccc5c4CCN3C[C@H]2C[C@@H](OC(=O)c2cc(OC)c(OC)c(OC)c2)[C@@H]1OC,"Synaptic vesicular amine transporter (SLC18A2, Homo sapiens, UniProt Q05940)",inhibitor,"HEK293, permeabilized","15 µM, added: [3H]dopamine",,dopamine uptake,inhibited
CC[C@H](C)[C@H](NC(=O)CNC(=O)[C@@H](N)CCCCN)C(=O)N[C@@H](CC(C)C)C(=O)N[C@@H](CCCCN)C(=O)N[C@@H](CC(N)=O)C(=O)N[C@@H](CCCNC(=N)N)C(=O)N[C@@H](C)C(=O)N[C@@H](CCCNC(=N)N)C(=O)N[C@@H](CCCNC(=N)N)C(=O)N[C@@H](CCC(=O)O)C(=O)N[C@@H](CCCNC(=N)N)C(=O)N1CCC[C@H]1C(=O)NCC(=O)N[C@@H](CCCCN)C(=O)N[C@@H](CCCNC(=N)N)C(=O)N[C@@H](CCCCN)C(=O)N[C@@H](CC(N)=O)C(=O)N[C@H](C(=O)N[C@@H](Cc1c[nH]cn1)C(=O)N[C@@H](Cc1c[nH]c2ccccc12)C(=O)N1CCC[C@H]1C(=O)N[C@@H](CCC(=O)O)C(=O)N[C@@H](CCC(=O)O)C(=O)NCC(=O)N[C@@H](CCCCN)C(=O)N[C@@H](CC(C)C)C(=O)N[C@@H](CCCNC(=N)N)C(=O)N[C@@H](CCC(=O)O)C(=O)N[C@@H](Cc1ccc(O)cc1)C(=O)N[C@@H](Cc1ccccc1)C(=O)N[C@@H](Cc1ccc(O)cc1)C(=O)N[C@@H](Cc1ccccc1)C(=O)N[C@@H](CCC(=O)O)C(=O)N[C@@H](CC(C)C)C(=O)N[C@@H](CC(=O)O)C(=O)N[C@@H](CCC(=O)O)C(=O)N[C@@H](C)C(=O)N[C@@H](CCC(=O)O)C(=O)N[C@@H](CCCNC(=N)N)C(=O)N[C@H](C(=O)N[C@@H](CC(N)=O)C(=O)N[C@H](C(=O)O)C(C)C)C(C)C)C(C)C,"Serine/threonine-protein phosphatase PP1-alpha catalytic subunit (PPP1CA, Homo sapiens, UniProt P62136)","binding, isothermal titration calorimetry",,"25 °C, PP1α residues 7-330",,entropic term −TΔS,-23.5 ± 0.2 kcal/mol
CC(C)[C@@H]1NC(=O)[C@H](C)OC(=O)[C@@H](C(C)C)NC(=O)[C@@H](C(C)C)OC(=O)[C@H](C(C)C)NC(=O)[C@H](C)OC(=O)[C@@H](C(C)C)NC(=O)[C@@H](C(C)C)OC(=O)[C@H](C(C)C)NC(=O)[C@H](C)OC(=O)[C@@H](C(C)C)NC(=O)[C@@H](C(C)C)OC1=O,"Metalloendopeptidase OMA1, mitochondrial (OMA1, Homo sapiens, UniProt Q96E52)",Western blot,"HEK293T, OMA1 siRNA knockdown",concentration not given,,full-length Luke-S1 level,28.8 ± 9.1%
C[C@@H]1C[C@@H]([C@H](O)CC2CC(=O)NC(=O)C2)C(=O)[C@@H](C)C1,"Protein transport protein Sec61 subunit alpha isoform 1 (Homo sapiens, UniProt P61619)","Sec61-dependent translocation, inhibitor, item: CD4 signal peptide-FLuc reporter",HEK293,concentration not given,relative to: mock,FLuc/RLuc ratio,0.177
CC(CCn1ccc(-c2ccc(-c3cn(CC4CCCCC4)nn3)cc2)cc1=O)(C(=O)NO)S(C)(=O)=O (centres unmarked),"UDP-3-O-acyl-N-acetylglucosamine deacetylase (Pseudomonas aeruginosa, UniProt P47205)",fluorescence,,37 °C,,residence time,100 ± 18.5 min
[2H]c1c([2H])c([C@]2([2H])CCCN2C(=O)C(C)(C)Oc2ccc3cn[nH]c3c2)c([2H])c([2H])c1C([2H])([2H])[2H],"Mitogen-activated protein kinase kinase kinase kinase 3 (MAP4K3, Homo sapiens, UniProt Q8IVH8)",KINOMEscan,,1 µM,relative to: DMSO control,remaining binding,88%
COc1cc(N)c(Cl)cc1C(=O)NC1CN2CCC1CC2 (centres unmarked),"Probable G-protein coupled receptor 148 (GPR148, Homo sapiens, UniProt Q8TDV2)","β-arrestin recruitment, TANGO luminescence, item: GPR148",,concentration not given,relative to: basal luminescence,log2 fold change,0.059
CCCCNC(=O)OCC#CI,"Fatty acid-binding protein, adipocyte (FABP4, Homo sapiens, UniProt P15090)","binding, affinity selection mass spectrometry",,"100 nM, pooled screen",relative to: other proteins,fold change,18.4
O=P(O)(O)OC[C@H]1C[C@](O)(CO)[C@@H](O)[C@H](O)[C@@H]1O,"valA (Streptomyces hygroscopicus, UniProt H2K887)",phosphate release,,150 µM,,apparent Vmax,2.7 ± 0.3 µM/min
CC[C@@H](C)[C@@H](NC(=O)[C@@H](Cc1ccc(O)cc1)NC(=O)[C@H]1CCCN1C(=O)[C@@H](CCCNC(=N)N)NC(=O)[C@H](N)Cc1c[nH]cn1)C(=O)N[C@H](C)C(=O)N[C@H](Cc1c[nH]cn1)C(=O)N[C@H](CCCNC(=N)N)C(=O)N[C@H](CCCCNC(=O)c1cccc(S(=O)(=O)F)c1)C(=O)N[C@H](Cc1ccc(O)cc1)C(=O)N[C@H](CO)C(=O)N[C@H](Cc1ccccc1)C(N)=O,"Transferrin receptor protein 1 (Tfrc, Mus musculus, UniProt Q62351)",flow cytometry,B16,"48 h, unit not given",relative to: 0 h,surface TFRC expression,0.396
O=C(Nc1cccnn1)N1CCC(=Cc2cccc(Oc3ccc(C(F)(F)F)cn3)c2)CC1,"Muscarinic acetylcholine receptor M3 (CHRM3, Homo sapiens, UniProt P20309)",binding,,"10 µM, added: [3H]N-methylscopolamine",,inhibition,8%
CN1CCN(c2cc(-c3ccncc3)c(-c3ccc4ccccc4c3)nn2)CC1,"Urotensin-2 receptor (UTS2R, Homo sapiens, UniProt Q9UKP6)","agonist, FLIPR",,12.5 µM,,activation,0.1%
Cc1nn(C)cc1-c1nc2c(N3CCN(Cc4ccc(Cl)cc4)CC3)c(Cl)cnc2[nH]1,"Serine/threonine-protein kinase Nek3 (NEK3, Homo sapiens, UniProt P51956)",KINOMEscan,,1 µM,relative to: DMSO control,remaining binding,100%
CC1(C)[C@H](C(=O)O[C@H](C#N)c2cccc(Oc3ccccc3)c2)[C@@H]1C=C(Br)Br,uncharacterized protein,"enzyme activity, inhibitor",Sf9 cell homogenate,"2.273 µM, 0.1667 h, added: α-naphthyl acetate substrate",relative to: no inhibitor,remaining activity,97.1%
Nc1ncc(-c2nc(N3CCOCC3)nc(N3CCOCC3)n2)c(C(F)F)n1,"Serine/threonine-protein kinase Nek10 (NEK10, Homo sapiens, UniProt Q6ZWH5)",KINOMEscan,,10 µM,,remaining binding,66%
C[n+]1cn([C@@H]2O[C@H](COP(=O)([O-])OP(=O)(O)OP(=O)(O)OC[C@H]3O[C@@H](n4cnc5c(=O)[nH]c(N)nc54)[C@H](O)[C@@H]3O)[C@@H](O)[C@H]2O)c2nc(N)[nH]c(=O)c21,"m7GpppX diphosphatase (DCS1, Saccharomyces cerevisiae, UniProt Q06151, H268N)","binding, ITC",,,,stoichiometry second site,1.01
CNC(=O)Oc1ccccc1OC(C)C,uncharacterized protein,"enzyme activity, inhibitor",Sf9 cell homogenate,"22.94 µM, 0.1667 h, added: α-naphthyl acetate substrate",relative to: no inhibitor,remaining activity,11.4%
O=C(c1ccc(Cl)cc1)N1CCN2C(=O)N(OC(=O)N3CCOc4ccccc43)C(=O)C2C1 (centres unmarked),"Complement C1r subcomponent-like protein (C1RL, Homo sapiens, UniProt Q9NZP8)","enzyme activity, inhibitor, MS-based ABPP",SW-620 conditioned medium,"10 µM, 1 h, 37 °C","relative to: compound over DMSO, lower = stronger inhibition",median ratio,1.21
OB(O)CSc1nc2ccccc2n1Cc1ccc(C(F)(F)F)cc1C(F)(F)F,"Regulatory protein BlaR1, sensor domain (blaR1, Staphylococcus aureus, UniProt P18357)","thermal stability, nanoDSF",,"concentration not given, BlaR 0.5 mg/mL",,melting temperature,53.5 ± 0.2 °C
C=C(CN(C(=O)c1c(C(F)F)nn(C)c1F)C1CC1)c1ccc(Cl)cc1Cl,"SDHD/SDHC/SDHB (Sus scrofa, UniProt A5GZW8+D0VWV4+Q007T0)","enzyme activity, inhibitor, DCIP reduction",pig,"0.2 µM, added: DCIP 190 µM",,reaction velocity,0.0261 µM/s and 0.0278 µM/s and 0.0273 µM/s
COc1cc(Nc2ncc(F)c(Nc3ccc4c(n3)NC(=O)C(C)(C)O4)n2)cc(OC)c1OC,"Receptor-interacting serine/threonine-protein kinase 2 (RIPK2, Homo sapiens, UniProt O43353)",KINOMEscan,,10 µM,,inhibition,85%
CC(C)C[C@H](NC(=O)[C@@H]1CCCN1C(=O)[C@H](CCCNC(=N)N)NC(=O)[C@H](CC(C)C)NC(=O)[C@H](CCCNC(=N)N)NC(=O)[C@H](CC(=O)O)NC(=O)[C@H](Cc1ccc(O)cc1)NC(=O)[C@H](CC(=O)O)NC(=O)[C@H](CCC(=O)O)NC(=O)[C@H](CCC(N)=O)NC(=O)CN)C(=O)O,"Epithelial sodium channel subunit gamma (Homo sapiens, UniProt P51170)","binding, bio-layer interferometry",,,,koff,16.5 s⁻¹
O=C(Nc1cnccc1Cl)N1CCN(Cc2ccc3c(c2)OC(F)(F)O3)CC1,"Prostaglandin E2 receptor EP3 subtype (PTGER3, Homo sapiens, UniProt P43115)","radioligand binding, inhibitor",,"50 µM, human, added: [3H]prostaglandin E2",,inhibition,16%
COc1ccc(N2C(=O)N(c3c(C)cccc3Cl)Cc3cnc(Nc4ccc(C5CCN(C)CC5)cc4OC)nc32)nc1,"Eukaryotic translation initiation factor 2-alpha kinase 1 (EIF2AK1, Homo sapiens, UniProt Q9BQI3)",kinase activity,,0.5 µM,,inhibition,1.31%
O=C1C=C2C(=CCOC2O)O1 (centres unmarked),"DNA cross-link repair 1A protein (DCLRE1A, Homo sapiens, UniProt Q6PJP8)","exonuclease activity, inhibitor, fluorescence HTS",,"10 µM, 80 min, added: 8 nM 5P-FQ substrate",,remaining activity,22.9%
O=C(Cc1cccs1)N[C@@H]1C(=O)N2C(C(=O)O)=C(/C=C/c3ccc([N+](=O)[O-])cc3[N+](=O)[O-])CS[C@H]12,"Metallo-beta-lactamase type 2 (blaNDM-1, Klebsiella pneumoniae, UniProt C7C422, C208H)","hydrolysis, substrate",,,,Km,> 20 µM
CN(C(=O)n1cnc(-c2ccc[n+]([O-])c2)c1)C1CCCCC1,"Estrogen receptor beta (ESR2, Homo sapiens, UniProt Q92731)",radioligand binding,,"50 µM, added: [3H]estradiol",,inhibition,1%
C[C@H]1CN(c2n[nH]c3nc(N[C@H]4CC[C@H](NS(=O)(=O)CCC(F)(F)F)CC4)ncc23)CCO1,"Splicing factor 3B subunit 3 (Homo sapiens, UniProt Q15393)","Kinobeads competition, item: SF3B3",,"20 µM, unit not given",relative to: vehicle,remaining binding,1.21
